Measurements pooled from the literature.
Every numbered part comes from another study and shows a few of its results, in no order. Several values in a cell are separate wells, animals, samples, runs or records.
Chain of UniProt P35916 (whole entry, looked up): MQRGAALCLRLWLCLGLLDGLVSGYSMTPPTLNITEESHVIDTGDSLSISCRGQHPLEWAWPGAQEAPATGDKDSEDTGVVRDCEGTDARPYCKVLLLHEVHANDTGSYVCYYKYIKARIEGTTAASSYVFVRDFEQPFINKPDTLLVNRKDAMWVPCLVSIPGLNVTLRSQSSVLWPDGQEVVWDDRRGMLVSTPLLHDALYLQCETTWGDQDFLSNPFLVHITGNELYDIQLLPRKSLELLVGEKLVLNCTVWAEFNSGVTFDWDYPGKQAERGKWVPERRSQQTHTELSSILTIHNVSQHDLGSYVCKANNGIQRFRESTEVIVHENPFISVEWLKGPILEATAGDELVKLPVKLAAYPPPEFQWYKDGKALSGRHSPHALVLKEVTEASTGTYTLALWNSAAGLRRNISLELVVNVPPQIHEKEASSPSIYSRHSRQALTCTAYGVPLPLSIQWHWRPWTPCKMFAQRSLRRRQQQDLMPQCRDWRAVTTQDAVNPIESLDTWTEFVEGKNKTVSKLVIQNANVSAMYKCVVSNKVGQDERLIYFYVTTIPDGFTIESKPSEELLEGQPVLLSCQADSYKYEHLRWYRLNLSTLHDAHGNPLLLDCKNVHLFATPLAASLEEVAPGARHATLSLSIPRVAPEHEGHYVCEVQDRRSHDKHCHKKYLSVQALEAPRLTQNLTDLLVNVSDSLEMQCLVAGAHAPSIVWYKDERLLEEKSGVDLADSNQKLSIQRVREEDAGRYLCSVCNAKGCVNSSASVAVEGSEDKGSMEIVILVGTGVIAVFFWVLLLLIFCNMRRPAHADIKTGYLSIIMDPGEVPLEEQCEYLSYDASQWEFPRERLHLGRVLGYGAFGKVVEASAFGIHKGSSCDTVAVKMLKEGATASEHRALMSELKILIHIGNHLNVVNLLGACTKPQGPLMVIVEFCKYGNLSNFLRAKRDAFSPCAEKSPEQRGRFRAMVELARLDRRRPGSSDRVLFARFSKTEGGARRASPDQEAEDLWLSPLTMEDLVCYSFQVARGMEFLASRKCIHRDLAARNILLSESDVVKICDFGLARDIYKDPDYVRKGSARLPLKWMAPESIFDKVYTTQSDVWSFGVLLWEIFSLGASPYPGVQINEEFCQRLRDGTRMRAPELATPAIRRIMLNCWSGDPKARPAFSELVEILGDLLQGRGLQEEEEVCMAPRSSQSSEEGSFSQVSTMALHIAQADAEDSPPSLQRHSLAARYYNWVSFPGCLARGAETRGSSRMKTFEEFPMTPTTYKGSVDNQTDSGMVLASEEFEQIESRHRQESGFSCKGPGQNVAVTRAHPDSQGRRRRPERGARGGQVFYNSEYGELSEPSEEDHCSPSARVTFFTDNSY
Chain of UniProt P21127 (whole entry, looked up): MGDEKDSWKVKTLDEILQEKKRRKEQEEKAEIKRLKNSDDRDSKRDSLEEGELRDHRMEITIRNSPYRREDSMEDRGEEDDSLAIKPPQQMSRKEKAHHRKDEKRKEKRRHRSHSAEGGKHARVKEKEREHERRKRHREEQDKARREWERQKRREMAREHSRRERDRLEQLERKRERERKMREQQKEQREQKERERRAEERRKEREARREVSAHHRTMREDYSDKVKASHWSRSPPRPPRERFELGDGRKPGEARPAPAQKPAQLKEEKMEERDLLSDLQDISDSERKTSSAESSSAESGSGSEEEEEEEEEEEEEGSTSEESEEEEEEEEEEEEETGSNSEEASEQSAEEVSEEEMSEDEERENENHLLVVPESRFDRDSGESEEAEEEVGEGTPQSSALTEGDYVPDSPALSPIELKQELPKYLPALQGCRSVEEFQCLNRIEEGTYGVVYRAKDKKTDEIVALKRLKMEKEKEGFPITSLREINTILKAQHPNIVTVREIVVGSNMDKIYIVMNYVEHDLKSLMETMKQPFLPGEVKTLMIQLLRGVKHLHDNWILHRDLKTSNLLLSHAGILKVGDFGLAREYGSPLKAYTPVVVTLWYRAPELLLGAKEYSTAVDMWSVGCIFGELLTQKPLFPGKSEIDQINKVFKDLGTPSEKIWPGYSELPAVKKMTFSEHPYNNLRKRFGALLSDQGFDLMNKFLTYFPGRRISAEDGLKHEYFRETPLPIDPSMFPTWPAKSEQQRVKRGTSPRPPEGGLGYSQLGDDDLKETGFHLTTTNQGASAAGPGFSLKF
Chain of UniProt P36894 (whole entry, looked up): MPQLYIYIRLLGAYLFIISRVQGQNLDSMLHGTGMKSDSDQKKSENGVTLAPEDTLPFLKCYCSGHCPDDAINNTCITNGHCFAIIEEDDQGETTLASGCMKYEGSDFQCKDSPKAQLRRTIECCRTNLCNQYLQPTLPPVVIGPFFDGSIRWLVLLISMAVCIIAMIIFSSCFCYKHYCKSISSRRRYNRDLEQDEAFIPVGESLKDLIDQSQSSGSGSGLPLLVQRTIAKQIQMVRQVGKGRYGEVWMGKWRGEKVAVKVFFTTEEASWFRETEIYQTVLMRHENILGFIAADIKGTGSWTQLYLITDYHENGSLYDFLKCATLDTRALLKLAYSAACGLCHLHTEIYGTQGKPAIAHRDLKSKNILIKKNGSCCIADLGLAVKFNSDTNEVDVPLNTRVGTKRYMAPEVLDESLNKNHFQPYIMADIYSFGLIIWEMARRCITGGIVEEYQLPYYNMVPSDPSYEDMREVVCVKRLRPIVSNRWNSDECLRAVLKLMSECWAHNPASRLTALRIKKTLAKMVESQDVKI
Chain of UniProt Q9Y2H1 (whole entry, looked up): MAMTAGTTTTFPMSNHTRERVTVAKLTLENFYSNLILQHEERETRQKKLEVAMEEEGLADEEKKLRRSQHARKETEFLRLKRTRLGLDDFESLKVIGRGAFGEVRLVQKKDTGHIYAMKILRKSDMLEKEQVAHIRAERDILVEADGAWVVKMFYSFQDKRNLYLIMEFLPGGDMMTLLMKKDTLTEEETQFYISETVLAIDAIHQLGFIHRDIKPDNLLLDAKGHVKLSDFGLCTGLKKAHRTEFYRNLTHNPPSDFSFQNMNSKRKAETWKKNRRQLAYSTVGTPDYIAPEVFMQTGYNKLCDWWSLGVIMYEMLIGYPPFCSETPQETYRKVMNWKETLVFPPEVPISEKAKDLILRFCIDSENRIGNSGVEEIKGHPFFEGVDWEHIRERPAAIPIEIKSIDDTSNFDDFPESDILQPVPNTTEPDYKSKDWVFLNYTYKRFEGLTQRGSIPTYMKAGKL
Chain of UniProt P08069 (whole entry, looked up): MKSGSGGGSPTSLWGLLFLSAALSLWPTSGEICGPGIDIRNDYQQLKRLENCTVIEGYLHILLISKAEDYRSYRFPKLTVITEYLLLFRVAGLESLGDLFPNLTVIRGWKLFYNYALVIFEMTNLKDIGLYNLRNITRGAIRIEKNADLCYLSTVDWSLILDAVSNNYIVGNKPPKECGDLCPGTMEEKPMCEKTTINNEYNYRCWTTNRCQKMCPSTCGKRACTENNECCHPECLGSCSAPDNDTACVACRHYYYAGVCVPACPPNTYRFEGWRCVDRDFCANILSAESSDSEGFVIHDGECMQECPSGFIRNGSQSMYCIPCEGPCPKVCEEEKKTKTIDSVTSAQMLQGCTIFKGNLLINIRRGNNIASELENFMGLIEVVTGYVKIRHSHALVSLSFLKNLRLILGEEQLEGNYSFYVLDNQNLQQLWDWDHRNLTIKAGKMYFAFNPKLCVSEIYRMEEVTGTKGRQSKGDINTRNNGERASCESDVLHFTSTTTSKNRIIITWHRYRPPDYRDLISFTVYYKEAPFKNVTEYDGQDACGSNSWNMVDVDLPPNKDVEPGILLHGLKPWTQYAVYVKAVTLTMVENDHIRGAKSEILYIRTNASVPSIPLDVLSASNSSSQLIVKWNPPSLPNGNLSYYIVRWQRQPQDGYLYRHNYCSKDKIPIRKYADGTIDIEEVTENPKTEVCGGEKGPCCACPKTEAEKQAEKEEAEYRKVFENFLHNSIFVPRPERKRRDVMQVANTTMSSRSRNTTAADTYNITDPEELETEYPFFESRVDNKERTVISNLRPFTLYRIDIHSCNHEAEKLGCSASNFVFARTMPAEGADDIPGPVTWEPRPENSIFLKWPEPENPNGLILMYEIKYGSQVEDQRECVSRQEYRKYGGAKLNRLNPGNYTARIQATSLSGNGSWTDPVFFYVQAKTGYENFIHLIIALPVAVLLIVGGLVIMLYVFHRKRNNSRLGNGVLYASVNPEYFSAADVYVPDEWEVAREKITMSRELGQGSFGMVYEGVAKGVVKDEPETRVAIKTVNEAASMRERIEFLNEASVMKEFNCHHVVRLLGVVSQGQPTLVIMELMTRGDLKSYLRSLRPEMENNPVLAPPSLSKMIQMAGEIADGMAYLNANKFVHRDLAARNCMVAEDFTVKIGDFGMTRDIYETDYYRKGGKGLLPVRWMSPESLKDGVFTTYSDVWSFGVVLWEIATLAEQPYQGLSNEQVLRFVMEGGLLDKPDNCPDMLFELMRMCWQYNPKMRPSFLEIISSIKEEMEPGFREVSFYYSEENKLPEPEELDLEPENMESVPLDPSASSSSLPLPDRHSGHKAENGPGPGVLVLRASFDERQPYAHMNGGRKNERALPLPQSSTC

Set 1 — cell line: mouse MPNST tumor cells; method: high-content immunofluorescence imaging; measured: nuclear SOX9; concentration: 10 µM; time: 12 h; setting: mean of 2 replicates; relative to: DMSO control; direction: higher = more nuclear SOX9; measurement: nuclear SOX9 intensity
SMILES = CCC1(c2c[nH]cn2)Cc2ccccc2C1; result = 96.6 % of DMSO
SMILES = CCOC1O[C@H]([C@@H](COCc2ccccc2)OCc2ccccc2)[C@H](OCc2ccccc2)[C@H]1O (some centres unmarked); result = 104 % of DMSO
SMILES = CN1CCN(c2ccc(-c3cccc(CN4CCOCC4)c3)cc2NC(=O)c2c[nH]c(=O)cc2C(F)(F)F)CC1; result = 93.7 % of DMSO and 102 % of DMSO
SMILES = COCCOC(=O)C1=C(C)NC(C)=C(C(=O)OC(C)C)C1c1cccc([N+](=O)[O-])c1 (centres unmarked); result = 107 % of DMSO
SMILES = Cc1cnc(NC(=O)c2cc(S(=O)(=O)N(C)C)ccc2N2CCCC2)s1; result = 94 % of DMSO
SMILES = CN1CCN(C(=O)CNC2CC2c2ccc(OCc3ccccc3)cc2)CC1 (centres unmarked); result = 130 % of DMSO
SMILES = Cc1ccccc1COc1ccc(C2C3=C(CC(C)(C)CC3=O)OC3=C2C(=O)CC(C)(C)C3)cc1; result = 112 % of DMSO
SMILES = Cc1cc(C)cc(NC(N)=Nc2ccccc2C(F)(F)F)c1; result = 126 % of DMSO

Set 2 — method: competition with immobilised ligand; concentration: 1 µM; measurement: remaining binding
SMILES: CC(=O)N1CCC(c2ccc(C(=O)NC3=NCCN3)cc2C(F)(F)F)CC1
target = BMPR1A (Homo sapiens, UniProt P36894); assay = binding; result = 100%
target = FES (Homo sapiens, UniProt P07332); assay = cell-free assay; result = 100%
target = MAP4K1 (Homo sapiens, UniProt Q92918); assay = cell-free assay; result = 100%
target = PIK3CA (Homo sapiens, UniProt P42336, E545K); assay = cell-free assay; result = 87%
target = STK38L (Homo sapiens, UniProt Q9Y2H1); assay = binding; result = 90%
target = CDK11B (Homo sapiens, UniProt P21127); assay = cell-free assay; result = 92%
target = FLT4 (Homo sapiens, UniProt P35916); assay = cell-free assay; result = 98%
target = PKMYT1 (Homo sapiens, UniProt Q99640); assay = cell-free assay; result = 100%
target = EPHA2 (Homo sapiens, UniProt P29317); assay = cell-free assay; result = 94%
target = FLT3 (Homo sapiens, UniProt P36888, R834Q); assay = cell-free assay; result = 100%
target = CDK9 (Homo sapiens, UniProt P50750); assay = cell-free assay; result = 84%
target = CSNK1G2 (Homo sapiens, UniProt P78368); assay = cell-free assay; result = 100%
target = PIK3CB (Homo sapiens, UniProt P42338); assay = cell-free assay; result = 100%
target = LATS1 (Homo sapiens, UniProt O95835); assay = cell-free assay; result = 93%
target = RIPK2 (Homo sapiens, UniProt O43353); assay = cell-free assay; result = 100%
target = IGF1R (Homo sapiens, UniProt P08069); assay = cell-free assay; result = 100%
target = PTK2 (Homo sapiens, UniProt Q05397); assay = cell-free assay; result = 17%
target = ALK (Homo sapiens, UniProt Q9UM73); assay = cell-free assay; result = 89%

Set 3 — read-out: enzyme activity; mode: inhibitor; concentration: 0.5 µM; relative to: control; measurement: remaining activity
Target: Serine/threonine-protein kinase PAK 2 (PAK2, Homo sapiens, UniProt Q13177)
Chain of UniProt Q13177 (whole entry, looked up): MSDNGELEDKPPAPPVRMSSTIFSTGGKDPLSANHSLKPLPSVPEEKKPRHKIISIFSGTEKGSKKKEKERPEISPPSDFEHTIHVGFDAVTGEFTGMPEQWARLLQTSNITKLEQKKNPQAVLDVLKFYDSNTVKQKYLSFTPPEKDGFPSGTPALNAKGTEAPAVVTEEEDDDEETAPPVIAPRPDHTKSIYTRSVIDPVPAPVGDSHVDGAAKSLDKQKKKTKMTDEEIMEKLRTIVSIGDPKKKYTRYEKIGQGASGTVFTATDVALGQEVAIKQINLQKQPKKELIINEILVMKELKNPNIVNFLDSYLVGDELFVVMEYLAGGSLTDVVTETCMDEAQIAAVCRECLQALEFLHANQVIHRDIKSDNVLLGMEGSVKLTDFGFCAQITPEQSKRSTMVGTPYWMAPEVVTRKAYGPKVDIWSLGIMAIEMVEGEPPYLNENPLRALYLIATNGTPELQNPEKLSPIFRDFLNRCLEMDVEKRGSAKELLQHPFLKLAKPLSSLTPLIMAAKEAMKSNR
Compound = N#C/C(=C(/N)SC1C=CC=CC1)c1cccc(C(O)c2ccncc2)c1 (centres unmarked); result = 103%
Compound = CC(C)n1cnc2c(Nc3cccc(Cl)c3)nc(NCCO)nc21; result = 106%
Compound = O=C(c1ccccc1)c1ccc(N2CCOCC2)cc1O; result = 103%
Compound = NC(=O)c1cccc(-c2cc(Nc3ccc(OC(F)(F)F)cc3)ncn2)c1; result = 106%
Compound = CC(C)N(CCC(=O)c1ccc2ccccc2c1)Cc1ccccc1; result = 107%
Compound = Nc1nc(Nc2ccc(S(N)(=O)=O)cc2)nn1C(=S)Nc1c(F)cccc1F; result = 26.4%
Compound = c1cc(-c2cnn3cc(-c4ccc(OCCN5CCCCC5)cc4)cnc23)ccn1; result = 105%

Set 4 — measurement: patients with respiratory failure
SMILES: CC(C)n1cnc(-c2ccc(F)cc2)c1-c1ncc(C(=O)Nc2ccc(N3CCN(C)CC3)cc2)[nH]1
system = human, idiopathic pulmonary fibrosis; conditions = 30 mg once daily, trial, treatment-emergent; result = 0%
assay = phase 2a trial; system = idiopathic pulmonary fibrosis patients; conditions = 60 mg once daily, grade 5 emergent event; result = 0%
assay = phase 2a trial; system = idiopathic pulmonary fibrosis patients; conditions = 30 mg once daily, grade 3 emergent event; result = 0%
assay = phase 2a trial; system = idiopathic pulmonary fibrosis patients; conditions = 30 mg once daily, grade 1 emergent event; result = 0%
assay = phase 2a trial; system = idiopathic pulmonary fibrosis patients; conditions = 60 mg once daily, grade 2 emergent event; result = 0%
assay = phase 2a trial; system = idiopathic pulmonary fibrosis patients; conditions = all arms, grade 2 emergent event; result = 0%

Mixed results
SMILES = CC(C)NCC(O)COc1ccc(CC(N)=O)cc1 (centres unmarked); tested on = DNA polymerase theta, ATPase domain (POLQ, Homo sapiens, UniProt O75417); assay = enzyme activity, inhibitor; conditions = 77 µM; measurement = remaining activity; result = 87.1%
SMILES = COc1ccc(-c2c(Nc3ccccn3)[nH]c3c(C4=CCCCC4)c(-c4ccccc4)nn3c2=O)cc1; assay = LC-MS/MS; system = human, plasma; conditions = oral, 50 mg once daily; measurement = Cavg; result = 1380 ng/mL and 1450 ng/mL and 1340 ng/mL
